Assay results gathered from unrelated publications.
± gives the spread as reported.
Sequence of UniProt P33261 (whole entry, looked up): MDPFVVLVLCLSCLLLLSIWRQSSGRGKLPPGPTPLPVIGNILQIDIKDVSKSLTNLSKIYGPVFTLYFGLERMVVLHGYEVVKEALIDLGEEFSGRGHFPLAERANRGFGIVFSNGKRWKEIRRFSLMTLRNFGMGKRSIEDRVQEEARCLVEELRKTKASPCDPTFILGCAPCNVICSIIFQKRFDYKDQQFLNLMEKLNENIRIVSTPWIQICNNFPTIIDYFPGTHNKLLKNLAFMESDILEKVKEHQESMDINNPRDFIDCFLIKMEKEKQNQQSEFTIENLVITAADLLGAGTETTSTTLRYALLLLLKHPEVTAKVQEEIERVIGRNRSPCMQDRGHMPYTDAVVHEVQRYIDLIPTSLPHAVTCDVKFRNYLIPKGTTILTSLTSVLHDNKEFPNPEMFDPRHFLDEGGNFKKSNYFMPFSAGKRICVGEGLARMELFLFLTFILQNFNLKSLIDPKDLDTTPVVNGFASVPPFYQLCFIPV

For CNC(=O)C1CCCN(C(=O)C2CC3CCC2N3C(=O)[C@@H]2C[C@@H](O)CN2C(=O)NCc2cccc(Cl)c2F)C1 (mixture of isomers), the remaining activity was 103% (CYP2C19 (Homo sapiens, UniProt P33261); enzyme activity, inhibitor, time-dependent inhibition; 1.85 µM, preincubated with NADPH; reference: negative control).
N#C[C@@H]1CC(F)(F)CN1C(=O)CNC(=O)c1ccnc2c(NC(=O)[C@@H](N)CCCCNC(=O)CCOCCOCCOCCOCCOCCOCCNC(=O)CN3CCN(CC(=O)[O-])CCN(CC(=O)[O-])CCN(CC(=O)[O-])CC3)cccc12.[177Lu+3] has a tracer uptake of 0.06 %ID/g (U-87 MG tumour model; host not given, heart; 4 h, tumour-bearing).
Cc1nc(N)nc2c1C(=O)N[C@@H](c1ccc(F)cc1-c1cccc(O[11CH3])n1)C2 gave a tracer uptake of 5 ± 0.8 %ID (ex vivo biodistribution; mice, MDA-MB-231 subcutaneous xenograft, brain; 60 min post-injection, baseline, vehicle pre-treatment).
The revertants of CCN(CC)CC#CCNc1ccnc2cc(Cl)ccc12 is reported as 2 revertants/well (Salmonella typhimurium; mini-Ames test; TA1535; 250.0 µg/well, with rat liver S9).
The mean SUV of O=C(Nc1cnccc1-c1ccc([18F])cc1)c1ccnc(NC(=O)C2CC2)c1 is reported as 0.36 (ex vivo biodistribution, gamma counting; GSK-3β overexpressing transgenic mouse, late stage, pancreas; intravenous, 1.26 MBq/animal, 120 min post-injection).
C=C(NC(=O)c1csc(-c2nc3c(cc2O)-c2nc(cs2)C(=O)NC(C(C)O)C(=O)NC(=C(C)OC)c2nc(cs2)C(=O)NC2c4nc(cs4)C(=O)NC(COC(=O)c4c5c6c(cccc6n4O)COC(=O)C(OC4CC(C)(O)C(N(C)C)C(C)O4)C2OC5)c2nc-3cs2)n1)C(N)=O (centres unmarked) gave an MRT(0-t) of 8.67 h (ICR mice, Streptococcus pneumoniae ATCC 49169 infected, immunocompromised, blood; intravenous, 8 mg/kg/day three times daily).
Under “revertant fold increase”, O=C1C2CC3CC1CC(C(=O)N1CCN(c4ccc([N+](=O)[O-])c5ncccc45)CC1)(C3)C2 is recorded as 0.9 (Salmonella typhimurium; Ames test; TA97a; 0.13 µg/well, with S9; reference: vehicle).
For CC(C)OCCOCc1ccc(OCC(O)CN(N=O)C(C)C)cc1 (centres unmarked), “revertant fold increase” read 1.2 fold (Salmonella typhimurium; Ames test; TA100; 50 µg/plate, 30 % hamster S9; reference: solvent control).
